# Published values gathered from unrelated publications.
# Each numbered part is a random draw from the data of one study; scales do not carry over between parts.
# UniProt P51957, sequence (whole entry, looked up): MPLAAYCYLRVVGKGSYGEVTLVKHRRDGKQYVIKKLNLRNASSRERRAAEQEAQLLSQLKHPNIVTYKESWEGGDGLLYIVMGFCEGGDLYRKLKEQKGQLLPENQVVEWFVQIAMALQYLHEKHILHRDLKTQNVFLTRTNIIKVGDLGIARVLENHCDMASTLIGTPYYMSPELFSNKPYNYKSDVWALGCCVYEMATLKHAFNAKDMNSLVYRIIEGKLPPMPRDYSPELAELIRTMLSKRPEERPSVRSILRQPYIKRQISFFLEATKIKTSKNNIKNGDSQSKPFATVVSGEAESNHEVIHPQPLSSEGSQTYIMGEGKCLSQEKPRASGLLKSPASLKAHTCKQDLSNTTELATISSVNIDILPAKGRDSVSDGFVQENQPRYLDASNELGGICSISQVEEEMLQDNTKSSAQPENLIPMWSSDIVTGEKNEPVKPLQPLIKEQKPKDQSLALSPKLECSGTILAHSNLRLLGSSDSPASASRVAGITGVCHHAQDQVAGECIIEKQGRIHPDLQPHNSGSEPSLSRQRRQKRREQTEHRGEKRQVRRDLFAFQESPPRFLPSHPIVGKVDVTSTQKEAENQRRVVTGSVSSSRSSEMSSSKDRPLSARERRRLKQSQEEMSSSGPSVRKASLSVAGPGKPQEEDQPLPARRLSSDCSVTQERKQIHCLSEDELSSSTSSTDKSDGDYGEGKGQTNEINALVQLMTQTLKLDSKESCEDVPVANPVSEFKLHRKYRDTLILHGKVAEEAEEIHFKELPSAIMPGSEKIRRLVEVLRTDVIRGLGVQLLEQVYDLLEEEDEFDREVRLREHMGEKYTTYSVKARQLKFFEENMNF
# UniProt Q59H18, sequence (whole entry, looked up): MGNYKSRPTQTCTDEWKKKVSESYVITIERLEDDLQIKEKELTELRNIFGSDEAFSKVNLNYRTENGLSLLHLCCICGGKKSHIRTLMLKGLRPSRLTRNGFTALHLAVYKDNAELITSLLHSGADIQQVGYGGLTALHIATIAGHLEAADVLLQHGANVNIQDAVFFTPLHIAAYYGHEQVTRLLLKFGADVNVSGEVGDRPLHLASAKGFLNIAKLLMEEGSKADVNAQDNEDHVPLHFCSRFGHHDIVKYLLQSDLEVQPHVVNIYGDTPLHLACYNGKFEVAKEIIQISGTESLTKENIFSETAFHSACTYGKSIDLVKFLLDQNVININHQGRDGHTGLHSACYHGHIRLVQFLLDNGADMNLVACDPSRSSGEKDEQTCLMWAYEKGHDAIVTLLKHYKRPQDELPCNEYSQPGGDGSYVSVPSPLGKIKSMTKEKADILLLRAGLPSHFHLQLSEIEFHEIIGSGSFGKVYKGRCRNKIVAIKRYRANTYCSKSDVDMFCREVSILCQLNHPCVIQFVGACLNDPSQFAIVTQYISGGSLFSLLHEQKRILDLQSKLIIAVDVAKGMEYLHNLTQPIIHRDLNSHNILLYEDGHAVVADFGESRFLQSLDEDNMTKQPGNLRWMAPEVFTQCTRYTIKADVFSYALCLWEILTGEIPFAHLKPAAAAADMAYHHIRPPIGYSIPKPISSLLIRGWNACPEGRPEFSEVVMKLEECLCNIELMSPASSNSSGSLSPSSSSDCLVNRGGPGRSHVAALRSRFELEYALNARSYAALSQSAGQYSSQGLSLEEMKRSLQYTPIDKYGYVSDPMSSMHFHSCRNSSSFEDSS
# UniProt Q6XUX3, sequence (whole entry, looked up): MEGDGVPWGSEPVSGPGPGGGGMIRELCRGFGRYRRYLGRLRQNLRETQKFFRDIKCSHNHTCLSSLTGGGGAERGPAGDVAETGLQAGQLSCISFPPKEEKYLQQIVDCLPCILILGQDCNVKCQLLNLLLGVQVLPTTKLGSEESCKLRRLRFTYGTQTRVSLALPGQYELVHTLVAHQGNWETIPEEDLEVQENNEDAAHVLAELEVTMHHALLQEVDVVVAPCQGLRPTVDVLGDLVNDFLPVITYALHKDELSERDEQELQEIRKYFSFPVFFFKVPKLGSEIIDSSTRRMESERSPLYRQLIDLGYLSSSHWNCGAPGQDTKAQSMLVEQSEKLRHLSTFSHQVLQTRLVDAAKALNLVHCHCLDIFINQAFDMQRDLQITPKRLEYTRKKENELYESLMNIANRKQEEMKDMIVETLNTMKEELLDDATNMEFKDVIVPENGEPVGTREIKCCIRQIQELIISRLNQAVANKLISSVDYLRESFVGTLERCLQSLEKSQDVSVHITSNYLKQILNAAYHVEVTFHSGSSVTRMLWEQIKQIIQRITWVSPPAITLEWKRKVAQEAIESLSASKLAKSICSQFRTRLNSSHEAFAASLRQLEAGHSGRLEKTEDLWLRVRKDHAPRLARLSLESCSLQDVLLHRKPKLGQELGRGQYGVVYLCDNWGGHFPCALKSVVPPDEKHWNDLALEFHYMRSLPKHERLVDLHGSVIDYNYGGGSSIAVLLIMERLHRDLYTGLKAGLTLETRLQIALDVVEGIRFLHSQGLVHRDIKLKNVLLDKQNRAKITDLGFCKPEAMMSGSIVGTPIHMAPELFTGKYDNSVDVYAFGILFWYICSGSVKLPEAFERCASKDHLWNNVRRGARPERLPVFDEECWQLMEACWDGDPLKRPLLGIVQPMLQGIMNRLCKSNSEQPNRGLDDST
# UniProt Q8WU08, sequence (whole entry, looked up): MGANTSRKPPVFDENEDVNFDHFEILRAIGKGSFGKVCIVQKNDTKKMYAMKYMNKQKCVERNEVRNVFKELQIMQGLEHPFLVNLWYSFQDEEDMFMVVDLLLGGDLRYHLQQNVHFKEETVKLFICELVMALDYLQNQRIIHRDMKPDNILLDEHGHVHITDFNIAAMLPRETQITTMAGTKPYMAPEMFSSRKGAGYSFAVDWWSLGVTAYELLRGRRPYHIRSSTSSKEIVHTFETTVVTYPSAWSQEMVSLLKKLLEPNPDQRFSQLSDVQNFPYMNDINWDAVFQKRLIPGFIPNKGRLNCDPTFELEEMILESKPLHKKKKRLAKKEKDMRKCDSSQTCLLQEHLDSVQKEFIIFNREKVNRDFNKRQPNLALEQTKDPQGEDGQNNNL
# UniProt P35968, sequence (whole entry, looked up): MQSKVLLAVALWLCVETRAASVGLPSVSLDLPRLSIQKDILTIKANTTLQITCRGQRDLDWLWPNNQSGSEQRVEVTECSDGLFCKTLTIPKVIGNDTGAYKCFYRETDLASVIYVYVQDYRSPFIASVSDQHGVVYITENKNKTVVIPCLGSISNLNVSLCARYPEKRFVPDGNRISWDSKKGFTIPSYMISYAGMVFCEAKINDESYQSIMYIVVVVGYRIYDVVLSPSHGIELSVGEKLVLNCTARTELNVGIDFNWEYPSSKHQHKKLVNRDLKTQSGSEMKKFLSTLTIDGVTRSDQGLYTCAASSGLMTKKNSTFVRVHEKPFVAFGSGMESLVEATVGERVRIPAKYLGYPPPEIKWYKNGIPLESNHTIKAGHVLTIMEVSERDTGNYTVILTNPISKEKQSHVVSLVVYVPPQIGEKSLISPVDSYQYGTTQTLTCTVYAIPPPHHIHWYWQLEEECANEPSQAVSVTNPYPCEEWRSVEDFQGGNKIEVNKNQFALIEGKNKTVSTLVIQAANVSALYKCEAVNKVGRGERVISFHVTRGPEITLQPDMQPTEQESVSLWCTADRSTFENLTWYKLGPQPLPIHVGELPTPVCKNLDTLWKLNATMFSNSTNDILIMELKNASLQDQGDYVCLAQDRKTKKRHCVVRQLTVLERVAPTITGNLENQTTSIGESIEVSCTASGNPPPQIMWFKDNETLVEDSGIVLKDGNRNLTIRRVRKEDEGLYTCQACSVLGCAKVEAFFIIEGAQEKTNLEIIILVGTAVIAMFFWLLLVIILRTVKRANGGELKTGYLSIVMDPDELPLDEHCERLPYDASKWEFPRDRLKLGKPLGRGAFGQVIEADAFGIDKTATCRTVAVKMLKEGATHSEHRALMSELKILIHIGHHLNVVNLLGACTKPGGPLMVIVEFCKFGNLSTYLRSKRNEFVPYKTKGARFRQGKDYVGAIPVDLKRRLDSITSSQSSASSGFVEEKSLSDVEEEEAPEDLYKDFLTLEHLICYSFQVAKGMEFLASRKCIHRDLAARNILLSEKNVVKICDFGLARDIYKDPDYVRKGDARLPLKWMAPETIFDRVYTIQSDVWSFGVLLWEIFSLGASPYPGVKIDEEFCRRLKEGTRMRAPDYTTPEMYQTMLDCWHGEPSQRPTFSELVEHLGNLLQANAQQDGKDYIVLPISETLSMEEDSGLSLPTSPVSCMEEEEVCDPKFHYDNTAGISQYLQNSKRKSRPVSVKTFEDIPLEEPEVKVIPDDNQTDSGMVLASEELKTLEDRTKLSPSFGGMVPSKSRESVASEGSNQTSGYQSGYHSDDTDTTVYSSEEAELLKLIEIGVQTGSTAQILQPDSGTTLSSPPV
# UniProt Q9Y616, sequence (whole entry, looked up): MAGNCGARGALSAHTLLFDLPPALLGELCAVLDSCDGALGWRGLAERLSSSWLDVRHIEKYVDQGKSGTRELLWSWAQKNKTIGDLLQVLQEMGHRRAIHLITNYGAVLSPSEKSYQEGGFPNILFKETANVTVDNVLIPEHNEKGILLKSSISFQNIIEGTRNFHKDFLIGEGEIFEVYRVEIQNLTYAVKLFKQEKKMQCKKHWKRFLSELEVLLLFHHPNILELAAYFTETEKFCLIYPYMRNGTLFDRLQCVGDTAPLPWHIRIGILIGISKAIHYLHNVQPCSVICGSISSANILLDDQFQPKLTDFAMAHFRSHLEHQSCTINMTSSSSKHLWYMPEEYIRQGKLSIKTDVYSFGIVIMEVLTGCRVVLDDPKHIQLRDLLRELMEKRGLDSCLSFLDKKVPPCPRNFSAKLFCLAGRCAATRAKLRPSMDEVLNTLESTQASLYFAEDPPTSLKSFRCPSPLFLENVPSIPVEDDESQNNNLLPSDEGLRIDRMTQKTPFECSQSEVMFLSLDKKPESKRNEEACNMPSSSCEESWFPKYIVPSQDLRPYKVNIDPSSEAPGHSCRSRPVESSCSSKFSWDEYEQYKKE

# Block 1
# Organism: Plasmodium berghei
# Action: inhibitor
# Cell line: Huh-7
# Strain: GFP-expressing, liver stage
# Tested at: 10 µM
# Time: 24 h
# Relative to: untreated control
SMILES,infection rate
CCCCCCCCN[C@@H](C)[C@H](O)c1ccc(SC(C)C)cc1 (racemic),26.4%
Cc1cc2cc3c(C)cc(=O)oc3c(C)c2o1,119%
O=C1OC(c2ccc(O)cc2)(c2ccc(O)cc2)c2ccccc21,87.2%
O=C(O)c1cn(-c2ccc(F)cc2)c2cc(N3CCNCC3)c(F)cc2c1=O,103%
C[C@]12C=CC(=O)C=C1CC[C@@H]1[C@@H]2[C@@H](O)C[C@@]2(C)[C@H]1CC[C@]2(O)C(=O)COP(=O)(O)O,119%
CCCOc1ccc(C(=O)OCCN(CC)CC)cc1N,79%
CN(C)CCc1c[nH]c2ccc(C[C@H]3COC(=O)N3)cc12,98.4%

# Block 2
# Target: Tyrosine-protein kinase Tec (TEC, Homo sapiens, UniProt P42680)
# Read-out: enzyme activity
# Action: inhibitor
# Tested at: 0.5 µM
# Relative to: control
# Construct (P42680 1-631): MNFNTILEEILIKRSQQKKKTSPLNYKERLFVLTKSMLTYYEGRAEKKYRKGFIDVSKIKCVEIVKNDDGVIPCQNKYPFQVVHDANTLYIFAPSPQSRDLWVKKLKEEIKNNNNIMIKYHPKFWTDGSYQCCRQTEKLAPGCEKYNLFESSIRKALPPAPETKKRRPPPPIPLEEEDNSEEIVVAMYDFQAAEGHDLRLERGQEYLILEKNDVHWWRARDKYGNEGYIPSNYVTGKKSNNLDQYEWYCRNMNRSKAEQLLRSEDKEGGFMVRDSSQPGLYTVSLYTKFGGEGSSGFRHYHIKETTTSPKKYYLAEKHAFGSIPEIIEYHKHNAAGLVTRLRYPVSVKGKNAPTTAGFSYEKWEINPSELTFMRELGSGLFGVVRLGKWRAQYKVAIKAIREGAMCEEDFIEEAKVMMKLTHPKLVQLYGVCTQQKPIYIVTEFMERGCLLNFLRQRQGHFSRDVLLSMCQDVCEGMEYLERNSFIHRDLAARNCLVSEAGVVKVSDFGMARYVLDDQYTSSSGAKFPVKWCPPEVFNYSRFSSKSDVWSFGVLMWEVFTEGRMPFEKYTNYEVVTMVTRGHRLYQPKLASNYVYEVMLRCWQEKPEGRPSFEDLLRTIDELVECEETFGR
Compound,remaining activity [%]
Nc1[nH]nc2nc3ccccc3nc12,108
COc1cc2ncnc(Nc3ccc(F)c(Cl)c3)c2cc1OCCCN1CCOCC1,104
CN(C)c1ccc(C=C2C(=O)Nc3ccccc32)cc1,103
Cc1ccc(NC(=O)c2ccc(CN3CCN(C)CC3)cc2)cc1Nc1nc(-c2cccnc2)cs1,83.2
CCOC(=O)c1c(C)[nH]c(/C=C2\C(=O)Nc3ccccc32)c1C,141
N#CC(C#N)=C(N)/C(C#N)=C/c1ccc(O)cc1,94.7
Nc1ccc2ncnc(NCCc3ccc(Oc4ccccc4)cc3)c2c1,88.3
CO[C@H]1C[C@@H]2CC[C@@H](C)[C@@](O)(O2)C(=O)C(=O)N2CCCC[C@H]2C(=O)O[C@H]([C@H](C)C[C@@H]2CC[C@@H](O)[C@H](OC)C2)CC(=O)[C@H](C)/C=C(\C)[C@@H](O)[C@@H](OC)C(=O)[C@H](C)C[C@H](C)/C=C/C=C/C=C/1C,138
Nc1ncnc2n[nH]c(Nc3ccc(F)cc3)c12,86
C#Cc1cccc(Nc2ncnc3cc(OCCOC)c(OCCOC)cc23)c1,96.2
Cc1ccc(Nc2nccc(N(C)c3ccc4c(C)n(C)nc4c3)n2)cc1S(N)(=O)=O,101
NCCNc1ncc(C(N)=O)c(Nc2cccc(C(F)(F)F)c2)n1,125
Cn1sc(=O)n(Cc2ccccc2)c1=O,117
COc1ccc(CNC(=O)Nc2ncc([N+](=O)[O-])s2)cc1,97.7
O=S(=O)(c1cccc2cnccc12)N1CCCNCC1,109

# Block 3
# Host: mouse
# Matrix: microsomes or S9
# Tested at: 2 µM
# Time: 0.5 h
SMILES,remaining compound
CC1CC(C)CC(NC(=O)c2coc(CS(C)(=O)=O)n2)C1 (centres unmarked),69.3%
O=c1[nH]ncn2nc(-c3ccc(Cl)c(Cl)c3)cc12,> 99.9%
CCc1ccc(N2C=NS(=O)(=O)c3cccnc32)cc1,46.2%
CC(C)n1c(=O)ccc2cnc(N[C@H]3CC[C@H](CN(C)C)CC3)nc21,79.8%
CC(C)(C)OC(=O)N1c2ccccc2[C@H]2OC(=O)C[C@H]21,59.5%

# Block 4
# Structure (SMILES): CN(C)CC#Cc1ccc(OCCCc2sc(N3CCc4cccc(C(=O)Nc5nc6ccccc6s5)c4C3)nc2C(=O)O)c(F)c1
# Read-out: cell-free assay
# Method: competition with immobilised ligand
# Tested at: 1 µM
target,remaining binding
"Vascular endothelial growth factor receptor 2 (KDR, Homo sapiens, UniProt P35968)",100%
"Interleukin-1 receptor-associated kinase 3 (IRAK3, Homo sapiens, UniProt Q9Y616)",77%
"Receptor-interacting serine/threonine-protein kinase 4 (RIPK4, Homo sapiens, UniProt P57078)",100%
"Interferon-induced, double-stranded RNA-activated protein kinase (EIF2AK2, Homo sapiens, UniProt P19525)",100%
"Serine/threonine-protein kinase 32A (STK32A, Homo sapiens, UniProt Q8WU08)",100%
"Tyrosine-protein kinase ABL1, phosphorylated (ABL1, Homo sapiens, UniProt P00519, Y253F)",93%
"Serine/threonine-protein kinase Nek4 (NEK4, Homo sapiens, UniProt P51957)",98%
"Dual serine/threonine and tyrosine protein kinase (DSTYK, Homo sapiens, UniProt Q6XUX3)",100%
"Serine/threonine-protein kinase TNNI3K (TNNI3K, Homo sapiens, UniProt Q59H18)",100%
"Serine/threonine-protein kinase RIO3 (RIOK3, Homo sapiens, UniProt O14730)",86%
"Serine/threonine-protein kinase Nek6 (NEK6, Homo sapiens, UniProt Q9HC98)",100%

# Repeated from above (block 4):
target,remaining binding
"Serine/threonine-protein kinase Nek4 (NEK4, Homo sapiens, UniProt P51957)",98%
"Dual serine/threonine and tyrosine protein kinase (DSTYK, Homo sapiens, UniProt Q6XUX3)",100%
